Published values from different studies.
A part holds a random share of what one study measured. Substitutions count along the parent as printed.

Sample 1
Target: ABI1, truncated, D143A, DHFR fusion (Arabidopsis thaliana)
Technique: DHFR PCA, deep sequencing
Medium: yeast
Notes: methotrexate growth selection, single substitutions
Together with: (+)-ABA 58 µM
Relative to: wild-type fitted maximum
Reading: higher = stronger binding
Endpoint: relative binding score
Starting sequence: PYL1, truncated, DHFR fusion (Arabidopsis thaliana); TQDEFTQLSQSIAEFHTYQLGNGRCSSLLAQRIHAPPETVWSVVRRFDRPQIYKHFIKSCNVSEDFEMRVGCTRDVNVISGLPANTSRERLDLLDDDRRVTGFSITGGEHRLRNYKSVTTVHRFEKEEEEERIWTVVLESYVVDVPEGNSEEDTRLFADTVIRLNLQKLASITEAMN
T135I: 4.36%
E151Y: 75.2%
R98I: 73.2%
L156Y: 75.7%
T73P: 11.9%
L28G: 6.61%
R88A: 70.6%
R99A: 55.9%
D75N: 89.5%
D144R: 32.9%
T101Q: 34.5%
E130S: 96.4%
G81M: 12.9%
V62H: 36.2%
T160M: 78.8%

Sample 2
Target: Interferon regulatory factor 5, full length, phosphomimetic (IRF5, Homo sapiens, UniProt Q13568-2, residues 1-514, K96S/S451D/S453D/S456D/S462D)
Technique: protein-binding microarray
Molecule type: double-stranded DNA, one strand shown
Medium: in vitro
Concentration: 250 nM
Notes: 60-bp whole probe
Together with: salmon DNA 0.4 mg/ml
Relative to: random background probes
Reading: higher = stronger binding
Endpoint: log fluorescence
Shared flanks, not repeated: GCCTAGCAC … GTCTTGATTCGCTTGACGCTGCTG
GACGATCTCAGACAGGAGACGTGCTAG: -0.327 z-score
GACGATTTCGGGTATCGAGGCGTGCTA: 4.56 z-score
TCAGTTTTCTTTTCCATACTGTGCTAG: 2.06 z-score
GGGGATAAACTTAATGGATGGTGCTAG: -0.342 z-score
GACGGACAGGGACTGGGGACGTGCTAG: -0.488 z-score
GACGGTTTCCTTATCTTGACGTGCTAG: 0.873 z-score
TCAGGTCTCTAACTCAAACTGTGCTAG: -0.142 z-score
GACGGTATCGGCACTGGGGACGTGCTA: 1.29 z-score
TTAGGCATCGGACTGGGTTAGTGCTAG: -0.467 z-score
TGGGGCTGTATCATCTGAAGGTGCTAG: 0.0527 z-score
GACGGACTGGGACTGGGGATGTGCTAG: -0.581 z-score
TTATGTTTCGGGTATCGGTTAGTGCTA: 9.56 z-score
TCATGTACATCTCTCTTACTGTGCTAG: 0.524 z-score
GACGGTTTCGGGACCGGGGACGTGCTA: 5.35 z-score
TTTTTTTTTTTTTTTTTTACGTGCTAG: 1.17 z-score
TTAGGTTTCGGTTCCGGGTAGTGCTAG: 9.98 z-score
GACGGTCTCCTTTTCCTCACGTGCTAG: 0.203 z-score

Sample 3
Target: RNA binding protein fox-1 homolog 2, RRM domain, GST-SBP tag (RBFOX2, Homo sapiens, UniProt O43251-10, residues 100-194)
Technique: RNA Bind-n-Seq
Molecule type: RNA
Medium: in vitro
Concentration: 365 nM
Notes: natural RNA segment, single round, ends assumed
Relative to: no-protein control
Reading: higher = stronger binding
Endpoint: RBNS enrichment (R)
Shared flanks, not repeated: GGGAGUUCUACAGUCCGACGAUC … UGGAAUUCUCGGGUGCCAA
Target sequence (chain): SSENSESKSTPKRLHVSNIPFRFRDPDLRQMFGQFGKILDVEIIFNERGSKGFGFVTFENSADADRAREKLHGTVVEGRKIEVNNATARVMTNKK
AUGUUCCCUUAAAACUCAGACUUCAACACAUCAGUUAAAUUUGUACUUUAGUUGUGGGUGUUAGAGUUUUUGUGUCAUGACUCAGUGUGGUUCACAUUCCUAGUGAGAAG: 0.337
AUUUGAGAGUUUGAGGAACUGAAACGUGUUGUGUUCAAGCAGCCUGGUGGCUAGUGCCUUCAUAUUAGAGCACCUUCUCUGAGGCUGAUUGGUGGGCAGGUAGGGAAGAC: 0.99
UCACCAUCGGUUCCCUGGCCUCCCUCCGUGGUCCAGCACUGGCCCCAGUAUGCUGUGUAUGCAGCAGGGACUCUUUUCCCCACAUGCCAGGAUGACUUGGAUCUGGGAAG: 0.318
CAUUCAUUUCUUUUACCUAUAGUGAAAUUAUUGAAUAGUAGUUUUUCUGAACUGUUGGAUUCUAGGCAUUCCUGAGAAAUUGAAAGUGGCUACCUUUCAUGUCAAAAUGU: 0.294
CCCACAGCCUUCUGGCUGCGACAUUAUAGAAUCGGCCGUGUCCCCCCUGGUGGGGGAUUGGGGAUCUGUGUUUAGCCAUUUAUAUCUACUUUAGCUGUUAAAGAGGUCCA: 0.253
CGCUGCCCUGUGACUCCGACCUGUAGACAGGGUUCACCUGAGCUCUGCCUGGAGUCUGAGGGUGACUUGAACUUCUGCCAGUACAUCUGCAACUAGAACCCUGGUCGCCU: 0.417
UGGGAUGCUGUGUCCCAAGGAAUUUCUUUUCACCUCUUGGUUGGGCUGGAGGGAAAAGGAGUGGCUCCUAGAGUCCUGGGGGUCACCCCAGGGCUUUUGCUGACUCUGGG: 0.527
GAAGCCCUGUGGCCACAUGUAUGUCAGUAAGGGUUGUACAAAAUAAAUUCUAUUUAUCGCUAUUGUACCCGGAGUUAAGAACAGCUUUGUGUAAACCCUGCCUAGACACA: 0.56
GAGGCCAUCUCUCUUCCAGAGAGAGGCAGCAUUGGCCCACAGGAUAAGCCUCAGGCCCUGGGAAACCUCCCGACCCCUGCACCUUCGUUGGAGCCCCUGCAUCCCCUGGG: 0.916
UUUUGACUUCAGGCCUGAGAAAAACUUCAGGUUUCGAAACAUGACAUCUCUUCCUUUUCCAGAUCCCAUGCUUUGAAAAAUAUUUAUAGACAGUUCCAGGUCUCAGCUUC: 0.415
UGAGUAUAUAGAAAGAAAAGUUACAGUACUCUGUGGGAAAAUCUCAGCUGACAUCAUGAAUAGAAUGAGGUCUGCUUCAGAACCUUUUGUUGUCAACUGUCACUGUUUCU: 0.346
UGGGAAUAAACAGCUGCCCUAGCCCCAGAGGGAUCCCUGCACCCAGGAGGCCUCCUGACACCAGCCAAAAUCCUGACAGCAGGGUCUGCCCUCUUGAGUGUGGGGAGCCC: 0.306

Sample 4
Target: Fragile X messenger ribonucleoprotein 1, C-terminal low-complexity region (Fmr1, Mus musculus, UniProt P35922)
Technique: RNA Bind-n-Seq
Molecule type: RNA
Medium: in vitro
Concentration: 200 nM
Notes: whole 134-nt RNA, ends assumed
Together with: 150 mM LiCl
Relative to: input library
Reading: higher = stronger binding
Endpoint: log2 enrichment
All molecules: 7-deaza-guanosine replaces G
Shared flanks, not repeated: GGGAGUUCUACAGUCCGACGAUC … UGGAAUUCUCGGGUGUCAAGG
CAAGUCCUGUGCUACACAUCGUAUGUACCGAAUCGGGGCCCGGGGCCCGGCCCGGGAAAGUAUUAUGUUACGCCGUUCGGAUCUGCACUU: -1.65
UGGCCCUGGUGGCAUGCGGGGAGGAAGAGGUGGCCUCAUGGAUGGUGGUGGUCCCGGUGGAAUGUUCAGAGGUGGCCGUGGUGGAGACAG: 0.362
UGGCCCUGGUGCCAUGCGGGGAGGAAGAGGUGGCCUCAUGGAUCGUGGUGGUCCCGGUGGAAUGUUCAGAGGUGGCCGUGGUGGAGACAG: -0.802
GUCCUGUGCUACACAUCGUAUGUACCGAAUCGGGUGGGAAAAAAAGGGUUUUUUUGGGAAAGUAUUAUGUUACGCCGUUCGGAUCUGCAC: -1.27
CUCAAGUCCUGUGCUACACAUCGUAUGUACCGAAUCGGUUUGGAAAAAGGAGGAAAGUAUUAUGUUACGCCGUUCGGAUCUGCACUUCCA: -0.237
CCUGUGCUACACAUCGUAUGUACCGAAUCGGGGAAAAAAAGGGGUGGGGAAAAAAAGGGGAAAGUAUUAUGUUACGCCGUUCGGAUCUGC: -1.4
AGUCCUGUGCUACACAUCGUAUGUACCGAAUCGGGCCCCCGGCCCCCGGGCCCCCGGGAAAGUAUUAUGUUACGCCGUUCGGAUCUGCAC: -2.19
UGGGAGGUGGAUUUUGUUUAUCUUUUUAGCUCAUUUCCAGGGGUGGGAAUUUUUUUUUAAUAUGUGUCAUGAAUAAAGUUGUUUUUGAAA: -0.0658
AAGUCCUGUGCUACACAUCGUAUGUACCGAAUCGGGUUUUGGGUUUUGGGGUUUUGGAAAGUAUUAUGUUACGCCGUUCGGAUCUGCACU: -0.936
UCAAGUCCUGUGCUACACAUCGUAUGUACCGAAUCGGGAAAAAGGGUGGGUGGGAAAGUAUUAUGUUACGCCGUUCGGAUCUGCACUUCC: -1.27
CUGUGCUACACAUCGUAUGUACCGAAUCGGGUUUUUUUGGGUUUUUUUGGGUUUUUUUGGGGAAAGUAUUAUGUUACGCCGUUCGGAUCU: 1.22

Repeated from above (sample 1):
L28G: 6.61%
R98I: 73.2%
D144R: 32.9%
